Measured values of several laboratories.
A part holds a random share of what one study measured. “And” joins repeats or separate records; there may be more than shown.
Sequence of UniProt P07949 (whole entry, unmodified, looked up): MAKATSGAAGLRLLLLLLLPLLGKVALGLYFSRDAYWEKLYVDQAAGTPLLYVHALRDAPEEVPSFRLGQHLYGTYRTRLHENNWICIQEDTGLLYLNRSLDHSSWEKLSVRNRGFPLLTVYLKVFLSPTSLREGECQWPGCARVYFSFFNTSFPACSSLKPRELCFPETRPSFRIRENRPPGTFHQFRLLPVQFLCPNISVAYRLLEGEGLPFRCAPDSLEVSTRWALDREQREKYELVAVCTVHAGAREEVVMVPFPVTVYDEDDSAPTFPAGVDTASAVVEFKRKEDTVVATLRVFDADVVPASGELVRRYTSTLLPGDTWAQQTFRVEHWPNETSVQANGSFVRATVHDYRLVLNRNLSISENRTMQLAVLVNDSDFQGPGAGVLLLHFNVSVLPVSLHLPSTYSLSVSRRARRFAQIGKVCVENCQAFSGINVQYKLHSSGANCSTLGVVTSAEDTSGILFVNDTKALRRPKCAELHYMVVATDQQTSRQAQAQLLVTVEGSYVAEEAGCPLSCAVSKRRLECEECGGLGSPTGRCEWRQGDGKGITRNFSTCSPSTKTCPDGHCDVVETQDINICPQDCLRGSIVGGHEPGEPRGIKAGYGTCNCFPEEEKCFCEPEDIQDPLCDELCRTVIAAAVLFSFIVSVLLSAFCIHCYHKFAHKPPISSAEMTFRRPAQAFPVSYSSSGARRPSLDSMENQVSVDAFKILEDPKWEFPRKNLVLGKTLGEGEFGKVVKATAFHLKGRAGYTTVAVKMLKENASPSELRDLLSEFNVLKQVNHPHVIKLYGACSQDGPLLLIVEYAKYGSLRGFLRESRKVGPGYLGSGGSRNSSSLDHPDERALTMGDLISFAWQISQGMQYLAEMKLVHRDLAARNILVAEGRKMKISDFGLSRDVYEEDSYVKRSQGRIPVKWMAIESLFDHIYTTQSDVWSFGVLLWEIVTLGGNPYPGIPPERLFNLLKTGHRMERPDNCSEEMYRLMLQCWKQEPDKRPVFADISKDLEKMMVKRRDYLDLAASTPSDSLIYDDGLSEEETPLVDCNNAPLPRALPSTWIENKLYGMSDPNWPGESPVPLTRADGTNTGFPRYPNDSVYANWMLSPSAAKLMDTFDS
Sequence of UniProt Q9HAZ1 (whole entry, looked up): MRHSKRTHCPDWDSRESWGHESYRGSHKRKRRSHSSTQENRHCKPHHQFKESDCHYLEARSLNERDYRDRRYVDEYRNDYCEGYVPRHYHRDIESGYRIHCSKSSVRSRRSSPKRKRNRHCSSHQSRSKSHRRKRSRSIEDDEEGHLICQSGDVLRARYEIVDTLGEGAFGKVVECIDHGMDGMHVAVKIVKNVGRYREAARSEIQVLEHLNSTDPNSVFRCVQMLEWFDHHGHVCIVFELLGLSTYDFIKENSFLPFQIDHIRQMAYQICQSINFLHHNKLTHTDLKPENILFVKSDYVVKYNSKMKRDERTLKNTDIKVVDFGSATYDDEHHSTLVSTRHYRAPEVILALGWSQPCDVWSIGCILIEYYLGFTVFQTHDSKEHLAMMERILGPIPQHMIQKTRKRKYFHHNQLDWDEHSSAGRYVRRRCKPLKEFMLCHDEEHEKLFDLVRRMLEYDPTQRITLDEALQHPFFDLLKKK
Sequence of UniProt Q86Y07 (whole entry, looked up): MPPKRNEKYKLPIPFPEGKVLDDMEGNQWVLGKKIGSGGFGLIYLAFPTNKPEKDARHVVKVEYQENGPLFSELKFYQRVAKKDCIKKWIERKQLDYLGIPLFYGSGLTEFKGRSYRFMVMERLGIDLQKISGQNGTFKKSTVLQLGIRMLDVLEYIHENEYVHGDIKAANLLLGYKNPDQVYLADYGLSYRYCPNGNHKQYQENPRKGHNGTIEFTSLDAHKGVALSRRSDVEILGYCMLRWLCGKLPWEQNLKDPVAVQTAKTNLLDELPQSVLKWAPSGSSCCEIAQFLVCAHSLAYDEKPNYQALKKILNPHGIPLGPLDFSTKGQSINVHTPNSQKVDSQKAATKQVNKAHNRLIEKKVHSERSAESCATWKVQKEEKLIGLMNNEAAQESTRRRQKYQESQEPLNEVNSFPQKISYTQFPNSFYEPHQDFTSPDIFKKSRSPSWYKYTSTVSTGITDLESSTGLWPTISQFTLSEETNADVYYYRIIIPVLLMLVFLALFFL
Sequence of UniProt Q15418 (whole entry, looked up): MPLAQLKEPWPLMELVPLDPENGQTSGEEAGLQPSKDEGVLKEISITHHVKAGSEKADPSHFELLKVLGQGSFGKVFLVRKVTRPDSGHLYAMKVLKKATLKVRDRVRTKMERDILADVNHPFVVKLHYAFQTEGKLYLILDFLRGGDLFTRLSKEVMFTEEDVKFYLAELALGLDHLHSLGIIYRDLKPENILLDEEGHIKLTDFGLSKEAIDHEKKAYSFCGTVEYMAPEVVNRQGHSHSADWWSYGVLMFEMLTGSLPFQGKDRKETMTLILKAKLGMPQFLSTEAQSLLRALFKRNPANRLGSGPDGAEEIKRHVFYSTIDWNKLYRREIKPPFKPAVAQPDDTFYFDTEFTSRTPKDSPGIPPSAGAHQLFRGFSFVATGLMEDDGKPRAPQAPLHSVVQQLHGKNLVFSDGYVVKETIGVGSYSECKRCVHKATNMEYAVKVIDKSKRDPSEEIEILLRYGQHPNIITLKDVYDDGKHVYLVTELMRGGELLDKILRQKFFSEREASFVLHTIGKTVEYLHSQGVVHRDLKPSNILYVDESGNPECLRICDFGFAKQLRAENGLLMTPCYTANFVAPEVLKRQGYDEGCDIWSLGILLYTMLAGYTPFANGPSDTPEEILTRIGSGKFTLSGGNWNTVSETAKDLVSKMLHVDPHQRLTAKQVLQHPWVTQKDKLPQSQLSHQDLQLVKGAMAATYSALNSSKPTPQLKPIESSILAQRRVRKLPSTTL
Sequence of UniProt P08581 (whole entry, looked up): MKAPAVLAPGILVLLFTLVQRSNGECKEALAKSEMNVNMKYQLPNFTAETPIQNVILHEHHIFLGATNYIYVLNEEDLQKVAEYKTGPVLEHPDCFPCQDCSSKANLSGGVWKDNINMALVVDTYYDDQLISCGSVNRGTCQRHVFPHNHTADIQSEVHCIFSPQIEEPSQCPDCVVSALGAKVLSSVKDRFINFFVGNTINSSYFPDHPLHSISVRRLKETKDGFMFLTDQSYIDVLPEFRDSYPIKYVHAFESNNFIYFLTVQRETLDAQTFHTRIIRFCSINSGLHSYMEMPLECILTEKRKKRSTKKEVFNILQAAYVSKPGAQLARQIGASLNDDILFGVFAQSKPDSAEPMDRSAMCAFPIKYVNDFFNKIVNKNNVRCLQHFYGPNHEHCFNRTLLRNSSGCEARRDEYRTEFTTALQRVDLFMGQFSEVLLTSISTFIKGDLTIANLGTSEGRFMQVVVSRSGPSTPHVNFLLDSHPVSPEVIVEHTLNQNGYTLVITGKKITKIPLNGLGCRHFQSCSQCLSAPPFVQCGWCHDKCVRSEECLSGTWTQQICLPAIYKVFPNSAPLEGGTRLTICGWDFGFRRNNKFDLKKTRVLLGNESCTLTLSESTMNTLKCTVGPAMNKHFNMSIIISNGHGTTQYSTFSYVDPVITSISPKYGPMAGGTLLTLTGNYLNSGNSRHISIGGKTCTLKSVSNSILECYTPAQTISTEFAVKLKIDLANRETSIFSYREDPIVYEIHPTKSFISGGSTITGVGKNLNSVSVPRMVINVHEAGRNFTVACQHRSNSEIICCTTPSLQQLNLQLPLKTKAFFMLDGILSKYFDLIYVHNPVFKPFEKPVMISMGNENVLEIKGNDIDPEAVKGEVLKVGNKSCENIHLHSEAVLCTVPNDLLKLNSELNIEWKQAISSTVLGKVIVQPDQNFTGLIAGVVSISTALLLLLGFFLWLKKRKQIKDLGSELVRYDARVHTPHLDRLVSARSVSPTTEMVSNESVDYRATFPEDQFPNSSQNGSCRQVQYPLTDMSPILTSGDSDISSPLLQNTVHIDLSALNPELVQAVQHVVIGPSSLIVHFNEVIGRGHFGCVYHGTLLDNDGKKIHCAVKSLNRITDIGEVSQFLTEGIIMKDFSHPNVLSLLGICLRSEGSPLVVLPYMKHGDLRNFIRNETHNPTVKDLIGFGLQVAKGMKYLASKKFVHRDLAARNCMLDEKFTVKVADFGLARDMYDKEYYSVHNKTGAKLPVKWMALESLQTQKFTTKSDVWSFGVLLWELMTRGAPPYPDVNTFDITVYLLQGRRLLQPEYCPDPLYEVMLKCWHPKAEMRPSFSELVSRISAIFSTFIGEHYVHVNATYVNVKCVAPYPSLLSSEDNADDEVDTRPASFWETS
Sequence of UniProt Q15831 (whole entry, looked up): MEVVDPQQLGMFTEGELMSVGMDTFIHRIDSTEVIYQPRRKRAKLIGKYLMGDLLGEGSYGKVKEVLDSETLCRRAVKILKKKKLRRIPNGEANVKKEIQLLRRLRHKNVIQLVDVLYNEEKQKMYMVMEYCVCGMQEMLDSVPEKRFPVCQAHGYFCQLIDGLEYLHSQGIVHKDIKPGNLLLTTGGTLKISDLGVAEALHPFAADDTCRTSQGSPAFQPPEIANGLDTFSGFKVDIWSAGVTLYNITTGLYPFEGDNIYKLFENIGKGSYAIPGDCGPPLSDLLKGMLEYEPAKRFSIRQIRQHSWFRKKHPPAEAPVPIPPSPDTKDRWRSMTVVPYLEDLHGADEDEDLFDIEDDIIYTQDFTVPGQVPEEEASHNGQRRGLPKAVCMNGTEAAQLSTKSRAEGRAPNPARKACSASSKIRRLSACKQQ

Series 1
SMILES: CN1CCN(C(=O)c2ccc(NC(=O)Nc3ccc(N(C)c4ccnc(Nc5ccc(CS(C)(=O)=O)cc5)n4)cc3)cc2)CC1
Observed: binding
Tested at: 1 µM
Measurement: remaining binding
target = Serine/threonine-protein kinase VRK2 (VRK2, Homo sapiens, UniProt Q86Y07); method = competition with immobilised ligand; value = 93%
target = Proto-oncogene tyrosine-protein kinase receptor Ret (RET, Homo sapiens, UniProt P07949, V804L); value = 5.5%
target = Hepatocyte growth factor receptor (MET, Homo sapiens, UniProt P08581); value = 8.8%
target = Dual specificity protein kinase CLK4 (CLK4, Homo sapiens, UniProt Q9HAZ1); value = 100%
target = Serine/threonine-protein kinase STK11 (STK11, Homo sapiens, UniProt Q15831); method = competition with immobilised ligand; value = 76%
target = Discoidin domain-containing receptor 2 (DDR2, Homo sapiens, UniProt Q16832); method = competition with immobilised ligand; value = 0%
target = Serine/threonine-protein kinase WNK4 (WNK4, Homo sapiens, UniProt Q96J92); value = 100%

Series 2
Target: Cyclin-dependent kinase 1, with cyclin A (CDK1, Homo sapiens, UniProt P06493)
Sequence of UniProt P06493 (whole entry, looked up): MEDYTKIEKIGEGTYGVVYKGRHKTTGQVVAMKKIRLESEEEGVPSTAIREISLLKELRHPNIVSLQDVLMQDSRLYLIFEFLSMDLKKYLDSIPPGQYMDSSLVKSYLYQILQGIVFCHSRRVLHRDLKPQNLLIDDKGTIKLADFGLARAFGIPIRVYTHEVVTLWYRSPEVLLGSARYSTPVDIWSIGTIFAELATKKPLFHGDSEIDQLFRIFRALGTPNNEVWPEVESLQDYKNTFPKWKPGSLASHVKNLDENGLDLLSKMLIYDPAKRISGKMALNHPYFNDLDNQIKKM
Observed: enzyme activity
Action: inhibitor
Tested at: 0.5 µM
Baseline: control
Measurement: remaining activity
Structure (SMILES) = OCC(O)CCON=C1C(c2c(O)[nH]c3ccccc23)=Nc2ccccc21 (stereo not shown); value = 56.7%
Structure (SMILES) = Cc1ccc(NC(=O)c2ccc(CN3CCN(C)CC3)cc2)cc1Nc1nc(-c2cccnc2)cs1; value = 98%
Structure (SMILES) = COc1cc2ncnc(Nc3ccc(F)c(Cl)c3)c2cc1OCCCN1CCOCC1; value = 101%
Structure (SMILES) = Cc1nc(-c2ccccc2)c(-c2ccncc2)o1; value = 94.7%
Structure (SMILES) = Cc1ccc(Nc2nccc(N(C)c3ccc4c(C)n(C)nc4c3)n2)cc1S(N)(=O)=O; value = 96.2%
Structure (SMILES) = O=C(O)c1ccc2c3c1cccc3c(=O)n1c3ccccc3nc21; value = 78.1%
Structure (SMILES) = CCOC(=O)c1c(C)[nH]c(/C=C2\C(=O)Nc3ccccc32)c1C; value = 96.3%
Structure (SMILES) = COc1cc2ncnc(Nc3ccc(Oc4ccccc4)cc3)c2cc1OC; value = 92.2%
Structure (SMILES) = COc1ccc(CNC(=O)Nc2ncc([N+](=O)[O-])s2)cc1; value = 93.4%
Structure (SMILES) = Nc1ccc2ncnc(NCCc3ccc(Oc4ccccc4)cc3)c2c1; value = 98.9%
Structure (SMILES) = NCCNc1ncc(C(N)=O)c(Nc2cccc(C(F)(F)F)c2)n1; value = 88.3%
Structure (SMILES) = O=C(Nc1cccc(Nc2cc(Nc3cccc(C(F)(F)F)c3)ncn2)c1)C1CC1; value = 97.9%
Structure (SMILES) = Cc1cccc(-c2[nH]c(C(C)(C)C)nc2-c2ccc3c(c2)OCO3)n1; value = 96.7%
Structure (SMILES) = Nc1[nH]nc2nc3ccccc3nc12; value = 95.3%
Structure (SMILES) = O=C1NC(=O)C(c2cn(CCCn3ccnc3)c3ccccc23)=C1Nc1ccccc1; value = 88.9%

Series 3
Compound: Cn1nc(C(=O)NCc2ccc(C(=O)O)cc2)cc1-c1ccc2[nH]ccc2c1
Observed: cell-free assay
Method: competition with immobilised ligand
Tested at: 0.1 µM
Measurement: remaining binding
target = Serine/threonine-protein kinase/endoribonuclease IRE1 (ERN1, Homo sapiens, UniProt O75460); value = 83%
target = Ribosomal protein S6 kinase alpha-1, C-terminal kinase domain (RPS6KA1, Homo sapiens, UniProt Q15418); value = 95%
target = Proto-oncogene tyrosine-protein kinase receptor Ret (RET, Homo sapiens, UniProt P07949, M918T); value = 49%
target = Tyrosine-protein kinase ABL1, phosphorylated (ABL1, Homo sapiens, UniProt P00519, Y253F); value = 100%
target = Atypical kinase COQ8A, mitochondrial (COQ8A, Homo sapiens, UniProt Q8NI60); value = 100%
target = Receptor-interacting serine/threonine-protein kinase 1 (RIPK1, Homo sapiens, UniProt Q13546); value = 100%

Series 4
SMILES: Cn1cnc(Cn2ccc3ccc(CNCc4[nH]c5ccccc5c4[C@H]4NC(=O)c5ccc(O)cc54)cc32)c1
Target: GTPase KRas (KRAS, Homo sapiens, UniProt P01116, G12C)
Observed: binding
Action: competitor
Method: NanoBRET
Cell line: HEK293
Baseline: vehicle and 20 µM BI compound
Measurement: normalized BRET
tested at = 1.02 nM; time = 0.5 h; value = 115% and 98.5% and 91.9% and 90.6%
tested at = 27.4 nM; time = 3 h; value = 114% and 126% and 104% and 123%
tested at = 339 pM; time = 0.5 h; value = 97.2% and 88.1% and 90.1% and 110%
tested at = 9.14 nM; time = 1 h; value = 88% and 99% and 92.7% and 90.5%
tested at = 82.2 nM; time = 4 h; value = 98.7% and 106% and 103% and 107%
tested at = 2.22 µM; time = 4 h; value = 17% and 16.7% and 13.9% and 12.4%

Some of these lines once more (series 1):
target = Serine/threonine-protein kinase STK11 (STK11, Homo sapiens, UniProt Q15831); method = competition with immobilised ligand; value = 76%
target = Discoidin domain-containing receptor 2 (DDR2, Homo sapiens, UniProt Q16832); method = competition with immobilised ligand; value = 0%
target = Serine/threonine-protein kinase WNK4 (WNK4, Homo sapiens, UniProt Q96J92); value = 100%
